Measured values pooled from the literature.
Compare with care: the assays were run in different laboratories. “And” joins repeats or separate records; there may be more than shown. ± gives the spread as reported.
FGFR1: Fibroblast growth factor receptor 1 (FGFR1, Homo sapiens, UniProt P11362)
TMPRSS11D: Transmembrane protease serine 11D (TMPRSS11D, Homo sapiens, UniProt O60235)
AGTR1: Type-1 angiotensin II receptor (AGTR1, Homo sapiens, UniProt P30556)
PDEB1: Class 1 phosphodiesterase PDEB1 (PDEB1, Trypanosoma brucei, UniProt Q8WQX9)
GP1 NS2B-NS3 protease: Genome polyprotein, NS2B-NS3 protease (GP1, West Nile virus, UniProt Q9Q6P4)
Mycosin-1: Mycosin-1 (Mycolicibacterium thermoresistibile, UniProt G7CDQ2)
TMPRSS2: Transmembrane protease serine 2 (TMPRSS2, Homo sapiens, UniProt O15393)

Structure (SMILES) | target | assay | test system | conditions | scale | inhibition
O=C1N[C@@H](CO)C[C@@H](O)c2ccccc21 (relative stereo) | PARP16 (Homo sapiens, UniProt Q8N5Y8) | enzyme activity, inhibitor | – | 10 µM | – | 95%
Cc1nc2ccc(Cc3c[nH]c4ncc(C(F)(F)F)cc34)cc2o1 | FGFR1 | enzyme activity, inhibitor | – | 0.1 µM | – | 27%
O=C(O)c1ccc2nc(-c3ccc(OCC(O)COc4ccc(-c5nc6ccc(C(=O)O)cc6[nH]5)cc4)cc3)[nH]c2c1 | DHFR (Homo sapiens, UniProt P00374) | enzyme activity | – | concentration not given | – | no inhibition
Cc1c(-c2c3c(N)n[nH]c(=O)c3nn2-c2ccccc2)oc2c(Cl)ccc(Cl)c12 | FGFR1 | enzyme activity, inhibitor, ELISA | – | 0.1 µM | – | 25.9%
CCCCCCCCNc1ccc(C(=O)O)cc1S(=O)(=O)N(C)C | SLC12A2 (Homo sapiens, UniProt P55011) | chloride influx | HEK293 transfected with SLC12A2 | 100 µM | baseline: DMSO | 70.6 ± 9.1%
CN(C)S(=O)(=O)c1ccc(S(=O)(=O)N2CCC(n3c(=O)[nH]c4ccccc43)CC2)cc1 | mfd, C-terminal domain (Escherichia coli, UniProt P30958) | ATPase activity | – | concentration not given | – | 85%
O=C(O[C@H](CO)C(F)(F)F)N1C[C@@H]2[C@H](C1)[C@H]2c1ccn(-c2ccc(F)nc2)n1 | Faah (Mus musculus, UniProt O08914) | ABPP | mouse brain lysate | 0.2 µmol/L | – | no inhibition
CC(C)C1=CC23CCC4C(C)(C(=O)O)CCCC4(C)C2CC1C(C(=O)O)C3C(=O)O (stereo not drawn) | Replication protein A 70 kDa DNA-binding subunit, with p53 (RPA1, Homo sapiens, UniProt P27694) | binding to p53, ELISA | – | 100 µM, added: immobilized p53-GST, 250 nM RPA | – | inhibited
CC(C)c1ccc(C(=O)Nc2ccc(CN)cc2)c(O)c1 | TMPRSS11D | enzyme activity, inhibitor, fluorescence | – | 10 µM | – | 35%
O=C(c1ccncc1)N1N=C2/C(=C/c3ccc(Br)cc3)CCCC2C1c1ccc(Br)cc1 (stereo not drawn) | PTGS2 (Homo sapiens, UniProt P35354) | enzyme activity | – | concentration not given | – | 86.5%
Cc1cccc(O)c1C(=O)Nc1ccc(CN)cc1 | TMPRSS11D | enzyme activity, fluorogenic substrate | – | 10 µM, added: Boc-VPR-AMC | – | < 20%
CCCCOC(=O)NS(=O)(=O)c1sc(CC(C)C)cc1-c1ccc(C)c(Cn2ccnc2)c1 | AGTR1 | ligand displacement, radioligand | – | 10 µM, cell membranes | – | 14%
CCc1nc2ccc(Cl)cn2c1C(=O)NC/C=C(\C)CC/C=C(\C)CCC=C(C)C | MT-CYB (Bos taurus, UniProt P00157) | oxygen consumption | bovine heart submitochondrial particles | 1 µM | – | no inhibition
COc1ccccc1Nc1c(C(N)=O)cnc2c(C)cc(-c3ccc4cnn(C)c4c3)cc12 | PDEB1 | enzyme activity, inhibitor | – | 10 µM | – | 60%
Cc1ccnc(NS(=O)(=O)c2ccc(NC(=O)c3cc(-c4ccccc4C)nc4ccccc34)cc2)n1 | PPIA (Homo sapiens, UniProt P62937) | enzyme activity, inhibitor | – | 10 µM | – | 11.2%
Nc1nc(Nc2ccccc2)sc1C(=O)c1ccccc1 | MAPK15 (Homo sapiens, UniProt Q8TD08) | enzyme activity, inhibitor | – | 10 µM | – | > 90%
Oc1c(C(Nc2nccs2)c2cccc(OCc3ccccc3)c2)ccc2cccnc12 (stereo not drawn) | GP1 NS2B-NS3 protease | enzyme activity, inhibitor | – | 25 µM, 0.1% CHAPS, added: tetrapeptide substrate | – | 87.2 ± 0.89%
COc1cccc(Nc2c(C(N)=O)cnc3c(C)cc(-c4ccc5cnn(C)c5c4)cc23)c1 | PDEB1 | enzyme activity, inhibitor | – | 10 µM | – | 84% and 83.7%
C/C(=N\NC(=N)N)c1ccc(N)cc1 | Mycosin-1 | protease activity, inhibitor, quenched fluorescent peptide | – | 150 µM, added: 20 µM fluorogenic peptide substrate | baseline: DMSO control | 52.5%
Cc1nn(CCO)c2ncc(C(=O)c3cc(Cl)ccc3O)cc12 | Heat shock protein HSP 90-beta, N-terminal domain (HSP90AB1, Homo sapiens, UniProt P08238) | binding, fluorescence polarization | – | 10 µM, added: FITC-geldanamycin | – | 38 ± 3%
COc1cc(C(=O)NC2CCC(N3CCN(CC4CCC5(CCCC5)C4)CC3)CC2)c(F)cc1Nc1ncc2c(n1)N(C1CCCC1(F)F)CC(F)(F)C(=O)N2C (stereo not drawn) | TYRO3 (Homo sapiens, UniProt Q06418) | cell-free assay, TR-FRET | – | 10 µM | – | 0.9%
Cc1c(-c2c3c(N)n[nH]c(=O)c3nn2-c2ccccc2)oc2cccc(F)c12 | FGFR1 | enzyme activity, inhibitor, ELISA | – | 0.1 µM | – | 11%
N#Cc1c(NC(=O)CN2CCOCC2)sc2c1CCC(c1ccccc1)C2 (stereo not drawn) | LDHA (Homo sapiens, UniProt P00338) | enzyme activity, inhibitor, fluorescence | – | 100 µg/mL | – | 25.6%
FC(F)(F)c1ccc(Cc2c[nH]c3ncc(C(F)(F)F)cc23)cc1 | FGFR1 | enzyme activity, inhibitor | – | 0.1 µM | – | 24%

Structure (SMILES) | target | assay | test system | conditions | scale | inhibition
NC(CNC(CNC(CC(=O)O)C(=O)O)C(=O)O)C(=O)O (stereo not drawn) | angiotensin-converting enzyme (rabbit) | – | – | 0.5 mM, Zn-depleted buffer, extended incubation | – | ~50%
OC(c1cccc(Cl)c1)c1c[nH]c2ncc(C(F)(F)F)cc12 (stereo not drawn) | FGFR1 | enzyme activity, inhibitor | – | 0.1 µM | – | 1%
CCCCOC(=O)NS(=O)(=O)c1sc(CC(C)C)cc1-c1ccc(Br)c(Cn2ccnc2)c1 | AGTR1 | ligand displacement, radioligand | – | 10 µM, cell membranes | – | 18%
CCn1c2ccccc2c2cc(CNCCCn3ccnc3)ccc21 | DRD2 (Homo sapiens, UniProt P14416) | cell-free assay, inhibitor | – | 10 µM | – | 17.6%
OC(c1cccc(Oc2ccccc2)c1)c1c[nH]c2ncc(C(F)(F)F)cc12 (stereo not drawn) | FGFR1 | enzyme activity, inhibitor | – | 0.1 µM | – | 15%
NCc1ccc(NC(=O)c2cc3ccccc3[nH]2)cc1 | TMPRSS2 | enzyme activity, inhibitor | – | 10 µM, added: Boc-QAR-AMC | – | < 20%
CSC(=S)N/N=C/C(C)=N/NC(=N)N | Mycosin-1 | protease activity, inhibitor, quenched fluorescent peptide | – | 150 µM, added: 20 µM fluorogenic peptide substrate | baseline: DMSO control | 75.8%
Oc1c(C(Nc2nc3ccccc3s2)c2cccc(OCc3ccccc3)c2)ccc2cccnc12 (stereo not drawn) | GP1 NS2B-NS3 protease | enzyme activity, inhibitor | – | 25 µM, 0.1% CHAPS, added: tetrapeptide substrate | – | 96.79 ± 0.35%
FC(F)(F)c1cnc2[nH]cc(Cc3ccc(OCc4ccccc4)cc3)c2c1 | FGFR1 | enzyme activity, inhibitor | – | 1 µM | – | 29%
O=C(N[C@@H](CC1CCCCC1)C(=O)N[C@@H](C[C@H]1CCNC1=O)C(=O)C(=O)NC1CC1)OCc1cccc(Cl)c1 | Carboxypeptidase A1 (Homo sapiens, UniProt P15085) | enzyme activity, inhibitor | – | 43 µM, inhibitor/enzyme ratio 250 | – | 0%
OC(c1ccc(C(F)(F)F)cc1)c1c[nH]c2ncc(C(F)(F)F)cc12 (stereo not drawn) | FGFR1 | enzyme activity, inhibitor | – | 0.1 µM | – | 14%
CCCCOC(=O)NS(=O)(=O)c1sc(CC(C)C)cc1-c1cccc(CN(CC)C(C)=O)c1 | AGTR1 | ligand displacement, radioligand | – | 10 µM, cell membranes | – | 22%
NCCCCNC(=O)COc1cccc2c1C(=O)N(C1CCC(=O)NC1=O)C2=O (stereo not drawn) | von Hippel-Lindau disease tumor suppressor, with elongin B/C (VHL, Homo sapiens, UniProt P40337) | TR-FRET | – | 2.1 pM to 30 µM, 90 min | – | inactive
NCc1ccc(NC(=O)c2ccc3ccccc3c2O)cc1 | TMPRSS11D | enzyme activity, inhibitor, fluorescence | – | 10 µM | – | 36.8%
NCCCCCO[C@H]1O[C@H](COS(=O)(=O)O)[C@@H](O[C@@H]2O[C@@H](C(=O)O)[C@@H](O)[C@H](O)[C@H]2OS(=O)(=O)O)[C@H](O)[C@H]1NS(=O)(=O)O | Heparanase (HPSE, Homo sapiens, UniProt Q9Y251) | enzyme activity, inhibitor, WST-1 | – | 50 µM, added: fondaparinux | – | inactive
NCc1ccc(NC(=O)c2ccc(F)cc2O)cc1 | TMPRSS11D | enzyme activity, fluorogenic substrate | – | 10 µM, added: Boc-VPR-AMC | – | < 20%
Cc1cc2c(NC(=O)N[C@@H]3CC(C)(C)Oc4cc(C(F)(F)F)ccc43)c(C)ccc2cn1 | Trpv1 (Rattus norvegicus, UniProt O35433) | acid-evoked calcium influx, antagonist | HEK293, rat | 11.25 µM, pH 5 | – | 99.7 ± 0.1%
Cc1ccc(C(=O)Nc2ccc(CN)cc2)c(O)c1 | Kallikrein-6 (Homo sapiens, UniProt Q92876) | enzyme activity, inhibitor | – | 10 µM | – | 55%
CCCCOC(=O)NS(=O)(=O)c1sc(CC(C)C)cc1-c1cc(Cn2ccnc2)ccc1C | AGTR1 | ligand displacement, radioligand | – | 10 µM, cell membranes | – | 12%
OC(c1ccc(Cl)c(C(F)(F)F)c1)c1c[nH]c2ncc(C(F)(F)F)cc12 (stereo not drawn) | FGFR1 | enzyme activity, inhibitor | – | 1 µM | – | 17%
O=C(NC1CCNCC1)c1ccc2ccccc2c1O | TMPRSS2 | enzyme activity, inhibitor | – | 10 µM, added: Boc-QAR-AMC | – | < 20%
COc1cccc(C(O)c2c[nH]c3ncc(C(F)(F)F)cc23)c1 (stereo not drawn) | FGFR1 | enzyme activity, inhibitor | – | 0.1 µM | – | 35%
Cc1ccc(O)c(C(=O)Nc2ccc(CN)cc2)c1 | TMPRSS2 | enzyme activity, inhibitor, fluorescence | – | 10 µM | – | 43.2%
CC(C)C1=CCC2C(=C1)CCC1C(C)(C(=O)O)CCCC21C (stereo not drawn) | RPA1 (Homo sapiens, UniProt P27694) | helix destabilization, EMSA dsDNA probe | – | 200 µM | – | no effect
